Assay results collected from several papers.
Protocols differ between the studies behind these lines.
Target: Serine/threonine-protein kinase WNK3 (WNK3, Homo sapiens, UniProt Q9BYP7)
Sequence of UniProt Q9BYP7 (whole entry, looked up): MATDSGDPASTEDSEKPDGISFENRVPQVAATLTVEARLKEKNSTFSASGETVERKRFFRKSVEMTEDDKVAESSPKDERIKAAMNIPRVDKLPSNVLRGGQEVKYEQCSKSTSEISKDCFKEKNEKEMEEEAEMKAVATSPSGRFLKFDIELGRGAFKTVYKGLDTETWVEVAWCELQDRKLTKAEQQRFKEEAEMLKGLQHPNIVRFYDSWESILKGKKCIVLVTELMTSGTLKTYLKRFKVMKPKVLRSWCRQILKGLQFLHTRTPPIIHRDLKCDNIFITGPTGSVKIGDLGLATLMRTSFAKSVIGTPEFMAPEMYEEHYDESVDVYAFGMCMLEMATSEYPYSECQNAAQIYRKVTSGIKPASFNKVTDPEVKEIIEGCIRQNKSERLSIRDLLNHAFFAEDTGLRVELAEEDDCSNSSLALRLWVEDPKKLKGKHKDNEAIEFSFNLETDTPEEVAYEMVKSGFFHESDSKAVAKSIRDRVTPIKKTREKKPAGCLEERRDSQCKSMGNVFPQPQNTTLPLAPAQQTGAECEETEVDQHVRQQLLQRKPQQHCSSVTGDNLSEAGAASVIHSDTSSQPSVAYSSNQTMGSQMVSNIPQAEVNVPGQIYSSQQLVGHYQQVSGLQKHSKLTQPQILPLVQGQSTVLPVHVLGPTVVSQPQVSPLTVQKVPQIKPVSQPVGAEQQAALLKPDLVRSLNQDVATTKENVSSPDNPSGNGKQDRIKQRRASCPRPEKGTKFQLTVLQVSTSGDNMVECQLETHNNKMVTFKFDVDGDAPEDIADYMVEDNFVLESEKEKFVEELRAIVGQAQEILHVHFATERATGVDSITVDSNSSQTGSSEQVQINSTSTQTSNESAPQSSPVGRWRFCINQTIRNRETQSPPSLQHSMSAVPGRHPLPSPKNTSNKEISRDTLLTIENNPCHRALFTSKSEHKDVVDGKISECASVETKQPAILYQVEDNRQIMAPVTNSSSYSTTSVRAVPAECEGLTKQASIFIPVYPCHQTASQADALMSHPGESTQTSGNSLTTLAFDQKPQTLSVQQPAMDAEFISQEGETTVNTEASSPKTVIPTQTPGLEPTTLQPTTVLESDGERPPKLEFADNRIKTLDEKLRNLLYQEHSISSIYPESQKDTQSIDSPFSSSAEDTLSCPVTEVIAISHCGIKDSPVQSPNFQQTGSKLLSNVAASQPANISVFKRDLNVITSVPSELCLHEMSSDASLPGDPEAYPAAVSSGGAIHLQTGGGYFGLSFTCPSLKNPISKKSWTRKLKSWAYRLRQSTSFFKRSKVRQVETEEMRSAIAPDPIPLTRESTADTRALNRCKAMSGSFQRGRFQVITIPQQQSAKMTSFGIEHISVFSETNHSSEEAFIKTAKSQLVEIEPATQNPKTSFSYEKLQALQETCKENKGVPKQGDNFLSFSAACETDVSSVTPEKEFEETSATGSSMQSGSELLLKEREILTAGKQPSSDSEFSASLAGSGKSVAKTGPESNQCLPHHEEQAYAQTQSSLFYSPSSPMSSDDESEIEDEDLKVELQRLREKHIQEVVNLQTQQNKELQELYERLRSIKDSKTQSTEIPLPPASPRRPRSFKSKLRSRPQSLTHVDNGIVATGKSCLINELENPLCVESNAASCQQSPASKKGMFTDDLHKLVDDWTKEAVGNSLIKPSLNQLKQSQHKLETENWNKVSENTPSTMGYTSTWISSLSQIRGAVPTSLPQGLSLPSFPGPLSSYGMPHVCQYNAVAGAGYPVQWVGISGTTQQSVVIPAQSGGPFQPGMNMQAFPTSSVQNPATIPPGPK

Structure (SMILES) | assay | conditions | scale | quantity | result
Cc1cnc2nc1Nc1cccc(c1)COC/C=C/COCc1cc(ccc1OCCN1CCOCC1)N2 | binding, competition with immobilised ligand | 0.1 µM | – | remaining binding | 100%
C=CC(=O)N1CCc2ccc(-n3c(=O)ccc4cnc5ccc(-c6cnn(C)c6)cc5c43)cc21 | KINOMEscan | 1 µM | baseline: DMSO control | remaining binding | 100%
CCN1CCN(Cc2ccc(NC(=O)c3ccc(C)c(NC(=O)c4cncc(-c5cnn(C)c5)c4)c3)cc2C(F)(F)F)CC1 | binding, competition with immobilised ligand | 1 µM | – | remaining binding | 100%
O=C(Cc1ccc(OCc2ccccc2)cc1)NC1(C(=O)O)CCN(C(=O)c2ccc(-c3cccc(Cl)c3)cc2)CC1 | enzyme activity, inhibitor | 10 µM | – | activity vs control | 123%
NC(=O)C[C@H]1CCc2sc3ncnc(O[C@H]4CC[C@H](N5CCOCC5)CC4)c3c21 | enzyme activity, inhibitor | 10 µM | – | inhibition | 5%
Nc1ncc(-c2cc(-c3cnn(CC(F)(F)F)c3)ncc2F)nc1C(=O)NC1CNCC(F)C1 (stereo not shown) | enzyme activity | 1 µM | baseline: DMSO control | remaining activity | 105%
CC(C)=CC1OC(C)(C)C2C=C3C(=O)C(Cl)=CC(O)C3C3C(O)C4OC4C(=O)C132 (stereo not shown) | cell-free assay, competition with immobilised ligand | 10 µM | – | remaining binding | 74%
O=C(Nc1ccc(Oc2ncnc3[nH]cc(-c4ccccc4)c23)c(F)c1)c1c2n(n(-c3cc(F)ccc3F)c1=O)CCCC2 | enzyme activity, inhibitor | 0.5 µM | – | inhibition | 22%
COCC12C(=O)NC3C4(C(OC)CC1O)C1CC5(O)C(OC)C(O)C(OC(C)=O)(C1C5OC(=O)c1ccccc1)C3(O)C(OC)C24 (stereo not shown) | kinase activity, inhibitor, ProQinase kinase profiling | 25 µM | baseline: control | remaining activity | 100%
CNC1C[S+]2CC[S+]3CC[S+](C1)[Ru-4]321([N]=C=S)[n]2c3ccc(OC)cc3c3c4c(c5cc(F)c[n+]1c5c32)C(=O)NC4=O (stereo not shown) | KinomeScan | 0.1 µM | baseline: untreated | remaining binding | 100%
CNC(=O)C1CCN(c2cc(C)c(F)cc2NC(=O)c2ccc(-c3cc(O)ccc3C)c(C)c2)CC1 | binding, competition with immobilised ligand | 1 µM | – | remaining binding | 45%
COc1c(OCCCN2CCOCC2)ccc2c1N=C(NC(=O)c1cnc(N)nc1)N1CCN=C21 | kinase activity, inhibitor | 1 µM | baseline: untreated control | remaining activity | 108%
COc1cc(Nc2nc(C)cc(-c3cnn4nc(OC)ccc34)n2)cc(C(F)(F)F)c1 | binding, competition with immobilised ligand | 1 µM | – | remaining binding | 81%

Repeated from above:
Structure (SMILES) | assay | conditions | scale | quantity | result
C=CC(=O)N1CCc2ccc(-n3c(=O)ccc4cnc5ccc(-c6cnn(C)c6)cc5c43)cc21 | KINOMEscan | 1 µM | baseline: DMSO control | remaining binding | 100%
